Assay results gathered from unrelated publications.
Parts stem from different laboratories: compare values within a part only.
Chain of UniProt P29376 (whole entry, looked up): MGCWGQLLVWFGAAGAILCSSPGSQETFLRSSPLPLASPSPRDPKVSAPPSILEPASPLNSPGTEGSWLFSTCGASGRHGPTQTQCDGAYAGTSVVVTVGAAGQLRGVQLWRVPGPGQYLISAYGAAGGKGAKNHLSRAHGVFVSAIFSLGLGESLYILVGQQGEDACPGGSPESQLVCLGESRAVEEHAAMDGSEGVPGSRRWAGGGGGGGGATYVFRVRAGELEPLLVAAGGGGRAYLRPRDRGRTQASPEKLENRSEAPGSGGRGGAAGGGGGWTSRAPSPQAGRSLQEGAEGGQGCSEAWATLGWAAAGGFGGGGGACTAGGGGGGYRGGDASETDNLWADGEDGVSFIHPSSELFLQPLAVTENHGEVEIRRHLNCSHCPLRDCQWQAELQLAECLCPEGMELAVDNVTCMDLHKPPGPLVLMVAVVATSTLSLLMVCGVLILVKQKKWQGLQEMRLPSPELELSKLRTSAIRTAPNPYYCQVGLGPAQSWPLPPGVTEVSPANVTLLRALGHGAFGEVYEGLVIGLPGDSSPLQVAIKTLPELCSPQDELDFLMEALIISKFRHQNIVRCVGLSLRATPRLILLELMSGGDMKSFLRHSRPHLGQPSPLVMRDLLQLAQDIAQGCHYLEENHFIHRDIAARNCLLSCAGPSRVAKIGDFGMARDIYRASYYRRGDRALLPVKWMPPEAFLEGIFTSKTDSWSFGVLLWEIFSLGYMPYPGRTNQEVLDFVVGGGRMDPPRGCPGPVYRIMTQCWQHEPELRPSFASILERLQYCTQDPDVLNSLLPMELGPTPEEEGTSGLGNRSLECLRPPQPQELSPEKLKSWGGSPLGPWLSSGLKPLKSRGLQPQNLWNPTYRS
Chain of UniProt O75116 (whole entry, looked up): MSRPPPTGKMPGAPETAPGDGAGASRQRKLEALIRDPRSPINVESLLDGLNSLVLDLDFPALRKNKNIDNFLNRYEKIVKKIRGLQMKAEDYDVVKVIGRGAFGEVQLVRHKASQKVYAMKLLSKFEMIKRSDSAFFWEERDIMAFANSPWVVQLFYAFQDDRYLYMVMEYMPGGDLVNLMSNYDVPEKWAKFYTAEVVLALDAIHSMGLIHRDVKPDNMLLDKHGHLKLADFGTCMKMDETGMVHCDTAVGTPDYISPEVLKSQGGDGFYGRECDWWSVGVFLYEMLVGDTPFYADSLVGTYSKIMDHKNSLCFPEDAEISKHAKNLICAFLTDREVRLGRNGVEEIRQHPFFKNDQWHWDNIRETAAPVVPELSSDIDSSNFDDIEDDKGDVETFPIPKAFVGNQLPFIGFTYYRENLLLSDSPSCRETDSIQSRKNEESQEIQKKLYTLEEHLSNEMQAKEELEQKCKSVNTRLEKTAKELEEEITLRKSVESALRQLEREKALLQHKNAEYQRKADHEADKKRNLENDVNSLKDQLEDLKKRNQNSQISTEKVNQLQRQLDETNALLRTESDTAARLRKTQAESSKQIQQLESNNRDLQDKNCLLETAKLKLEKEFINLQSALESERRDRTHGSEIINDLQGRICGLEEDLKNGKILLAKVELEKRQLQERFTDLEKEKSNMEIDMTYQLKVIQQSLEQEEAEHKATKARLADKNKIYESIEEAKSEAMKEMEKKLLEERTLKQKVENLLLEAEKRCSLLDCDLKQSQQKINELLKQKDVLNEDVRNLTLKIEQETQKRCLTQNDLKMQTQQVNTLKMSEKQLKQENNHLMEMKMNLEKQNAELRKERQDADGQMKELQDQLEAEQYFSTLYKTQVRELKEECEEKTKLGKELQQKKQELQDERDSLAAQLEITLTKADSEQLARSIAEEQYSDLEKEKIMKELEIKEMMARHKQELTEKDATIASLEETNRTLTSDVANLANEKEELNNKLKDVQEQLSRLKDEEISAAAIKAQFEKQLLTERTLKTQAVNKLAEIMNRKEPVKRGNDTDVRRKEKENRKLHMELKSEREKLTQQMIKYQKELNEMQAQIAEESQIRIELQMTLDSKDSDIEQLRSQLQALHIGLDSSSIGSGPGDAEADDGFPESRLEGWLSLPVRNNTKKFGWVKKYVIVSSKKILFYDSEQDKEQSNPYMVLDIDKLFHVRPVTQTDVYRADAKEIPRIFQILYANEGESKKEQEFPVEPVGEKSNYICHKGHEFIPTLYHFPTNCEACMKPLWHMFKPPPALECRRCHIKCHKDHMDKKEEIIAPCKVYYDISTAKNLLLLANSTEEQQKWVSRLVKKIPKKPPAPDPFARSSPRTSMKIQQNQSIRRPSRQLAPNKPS
Chain of UniProt Q13237 (whole entry, looked up): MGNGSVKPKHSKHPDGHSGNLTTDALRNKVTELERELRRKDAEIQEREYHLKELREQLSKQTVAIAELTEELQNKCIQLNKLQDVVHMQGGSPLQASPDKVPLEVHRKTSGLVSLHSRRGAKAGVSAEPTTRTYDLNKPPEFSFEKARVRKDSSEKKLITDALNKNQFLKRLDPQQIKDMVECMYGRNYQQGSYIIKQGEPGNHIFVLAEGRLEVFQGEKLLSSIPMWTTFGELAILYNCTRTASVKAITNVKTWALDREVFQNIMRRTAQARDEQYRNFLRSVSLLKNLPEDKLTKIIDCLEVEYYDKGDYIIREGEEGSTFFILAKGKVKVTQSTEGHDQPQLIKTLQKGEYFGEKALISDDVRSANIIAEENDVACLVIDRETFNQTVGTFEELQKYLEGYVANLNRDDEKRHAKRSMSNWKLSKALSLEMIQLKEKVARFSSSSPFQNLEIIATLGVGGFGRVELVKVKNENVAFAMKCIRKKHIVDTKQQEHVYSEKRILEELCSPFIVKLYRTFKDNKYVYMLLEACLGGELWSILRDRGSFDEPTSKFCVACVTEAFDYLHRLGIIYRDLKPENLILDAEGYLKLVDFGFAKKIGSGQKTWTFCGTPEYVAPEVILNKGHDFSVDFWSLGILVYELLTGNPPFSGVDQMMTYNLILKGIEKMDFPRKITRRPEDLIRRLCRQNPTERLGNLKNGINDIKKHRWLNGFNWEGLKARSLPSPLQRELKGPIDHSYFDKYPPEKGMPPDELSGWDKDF
Chain of UniProt P16591 (whole entry, looked up): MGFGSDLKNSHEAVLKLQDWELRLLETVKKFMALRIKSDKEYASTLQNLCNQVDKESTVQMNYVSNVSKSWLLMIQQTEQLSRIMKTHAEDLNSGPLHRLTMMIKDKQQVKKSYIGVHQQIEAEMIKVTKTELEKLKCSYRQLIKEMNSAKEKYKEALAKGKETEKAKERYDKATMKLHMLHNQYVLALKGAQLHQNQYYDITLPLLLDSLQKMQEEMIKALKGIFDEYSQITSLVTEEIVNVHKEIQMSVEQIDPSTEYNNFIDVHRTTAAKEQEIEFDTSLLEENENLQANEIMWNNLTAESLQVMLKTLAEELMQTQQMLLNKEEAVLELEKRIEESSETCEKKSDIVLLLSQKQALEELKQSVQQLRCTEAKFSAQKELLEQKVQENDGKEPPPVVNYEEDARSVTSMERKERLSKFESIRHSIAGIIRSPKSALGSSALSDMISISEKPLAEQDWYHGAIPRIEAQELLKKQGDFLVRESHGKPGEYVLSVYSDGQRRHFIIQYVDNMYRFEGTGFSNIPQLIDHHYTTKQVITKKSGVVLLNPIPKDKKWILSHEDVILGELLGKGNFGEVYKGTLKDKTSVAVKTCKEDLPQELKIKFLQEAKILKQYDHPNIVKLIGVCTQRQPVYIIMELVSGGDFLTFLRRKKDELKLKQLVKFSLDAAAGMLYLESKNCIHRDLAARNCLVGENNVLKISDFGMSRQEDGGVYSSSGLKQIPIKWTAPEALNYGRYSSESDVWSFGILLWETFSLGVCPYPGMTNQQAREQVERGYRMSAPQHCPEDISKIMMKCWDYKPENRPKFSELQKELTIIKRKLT

Sample 1 — species: human; sample: microsomes or S9; concentration: 2 µM; time: 0.5 h
Structure (SMILES) | remaining compound
COc1cc(-c2nnc3ccc4ccccc4n23)cc(OC)c1OC | 52.2%
CS(=O)(=O)CCCC(=O)N(CC(=O)O)C1CCCCC1 | 79.2%
CN1CCCC2(CCN(C3CCN(c4ccc(F)c(F)c4)CC3)C2)C1=O (stereo not shown) | 71.8%
Cc1ccccc1-c1nc2ccccc2cc1Cn1nc(-c2ccncc2)c2cnc(N)nc21 | 28.2%
CC(=O)Nc1cc(F)c(F)cc1NC(=O)CCNC(=O)C(C)(C)C | 83.4%
CCOC(=O)N1CCN(S(=O)(=O)c2c(C)c(C)c(C)c(C)c2C)CC1 | 2.84%
COc1cc(=O)[nH]cc1C(=O)N1CCCC(N2CCOCC2)C1 (stereo not shown) | 91.3%
Nc1noc2cc(OCCCCCOc3ccc4c(N)noc4c3)ccc12 | 95.5%

Sample 2 — Compound: C=CCc1ccc(O)c(-c2cc(CC=C)ccc2O)c1; observed: chloride current; technique: whole-cell voltage clamp
ANO1 del476-501/F623A: Anoctamin-1 (ANO1, Homo sapiens, UniProt Q5XXA6, del476-501/F623A)
Chain of UniProt Q5XXA6 (whole entry, unmodified, looked up): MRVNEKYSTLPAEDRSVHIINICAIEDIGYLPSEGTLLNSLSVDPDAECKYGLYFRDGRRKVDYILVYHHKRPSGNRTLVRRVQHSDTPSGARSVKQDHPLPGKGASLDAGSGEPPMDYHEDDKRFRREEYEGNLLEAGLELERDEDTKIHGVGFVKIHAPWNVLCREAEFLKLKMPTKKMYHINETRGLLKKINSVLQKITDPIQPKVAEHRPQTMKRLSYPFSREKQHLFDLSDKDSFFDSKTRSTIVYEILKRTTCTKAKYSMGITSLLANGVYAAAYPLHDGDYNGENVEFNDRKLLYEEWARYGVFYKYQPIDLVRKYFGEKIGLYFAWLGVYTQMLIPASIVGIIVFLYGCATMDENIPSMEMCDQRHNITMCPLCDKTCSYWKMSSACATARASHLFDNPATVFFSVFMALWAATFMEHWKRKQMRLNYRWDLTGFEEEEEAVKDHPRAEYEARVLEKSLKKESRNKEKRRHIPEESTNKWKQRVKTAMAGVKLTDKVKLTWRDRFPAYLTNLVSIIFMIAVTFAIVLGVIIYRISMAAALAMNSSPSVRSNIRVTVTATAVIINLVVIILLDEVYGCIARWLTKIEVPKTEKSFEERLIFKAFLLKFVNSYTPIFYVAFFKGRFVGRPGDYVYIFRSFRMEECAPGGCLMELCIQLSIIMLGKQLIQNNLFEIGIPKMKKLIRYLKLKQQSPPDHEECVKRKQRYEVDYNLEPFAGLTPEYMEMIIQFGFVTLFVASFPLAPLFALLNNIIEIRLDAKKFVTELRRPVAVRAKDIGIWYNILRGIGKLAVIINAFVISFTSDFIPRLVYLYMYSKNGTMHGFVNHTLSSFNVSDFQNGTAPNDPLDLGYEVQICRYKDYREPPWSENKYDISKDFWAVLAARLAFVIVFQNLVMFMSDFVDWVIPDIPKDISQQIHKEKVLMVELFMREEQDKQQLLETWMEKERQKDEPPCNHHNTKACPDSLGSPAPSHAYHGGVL
ANO1 del476-501/E650A: Anoctamin-1 (ANO1, Homo sapiens, UniProt Q5XXA6, del476-501/E650A)
target | test | setting | IC50
ANO1 del476-501/F623A | – | membrane voltage -20 mV | 31 µM
Anoctamin-1 (ANO1, Homo sapiens, UniProt Q5XXA6, del476-501/F807A) | – | membrane voltage -20 mV | 18.1 µM
ANO1 del476-501/E650A | – | membrane voltage 20 mV | 14.4 µM
ANO1 del476-501/E650A | – | membrane voltage -20 mV | 18 µM
Anoctamin-1 (ANO1, Homo sapiens, UniProt Q5XXA6, del476-501/K629D) | inhibitor | 100 mV holding voltage | 240 µM
Anoctamin-1 (ANO1, Homo sapiens, UniProt Q5XXA6, del476-501/F803A) | – | membrane voltage 60 mV | 18.1 µM
Anoctamin-1 (ANO1, Homo sapiens, UniProt Q5XXA6, D383A/del476-501) | – | membrane voltage 40 mV | 24.3 µM
Anoctamin-1 (ANO1, Homo sapiens, UniProt Q5XXA6, del476-501/M544T) | inhibitor | mutant M518T | 31.9 µM
ANO1 del476-501/F623A | – | membrane voltage -80 mV | 59.8 µM

Sample 3 — observed: cell-free assay; technique: competition with immobilised ligand; concentration: 1 µM
Compound: COc1ccc2c(O[C@@H]3C[C@H]4C(=O)N[C@]5(C(=O)O)CC5/C=C\CCCCC[C@H](NC(=O)OC5CCCC5)C(=O)N4C3)cc(-c3csc(NC(=O)C(C)C)n3)nc2c1C (stereo partly shown)
target | remaining binding
PRKG2 (Homo sapiens, UniProt Q13237) | 84%
ROCK2 (Homo sapiens, UniProt O75116) | 95%
WNK4 (Homo sapiens, UniProt Q96J92) | 91%
CAMK2B (Homo sapiens, UniProt Q13554) | 100%
FER (Homo sapiens, UniProt P16591) | 100%
PAK1 (Homo sapiens, UniProt Q13153) | 100%
STK38L (Homo sapiens, UniProt Q9Y2H1) | 43%
FLT3 (Homo sapiens, UniProt P36888) | 88%
RET (Homo sapiens, UniProt P07949, M918T) | 97%
LTK (Homo sapiens, UniProt P29376) | 100%
CAMK2D (Homo sapiens, UniProt Q13557) | 100%

Sample 4 — organism: Sarcocystis neurona; observed: parasite growth; concentration: 10 µM; time: 96 h; notes: second screen; baseline: untreated
SMILES | log2 fold change
CC(=O)/N=c1/sc(S(N)(=O)=O)nn1C | 0.43
Cc1c2oc3c(C)ccc(C(=O)N[C@@H]4C(=O)N[C@H](C(C)C)C(=O)N5CCC[C@H]5C(=O)N(C)CC(=O)N(C)[C@@H](C(C)C)C(=O)O[C@@H]4C)c3nc-2c(C(=O)N[C@@H]2C(=O)N[C@H](C(C)C)C(=O)N3CCC[C@H]3C(=O)N(C)CC(=O)N(C)[C@@H](C(C)C)C(=O)O[C@@H]2C)c(N)c1=O | 0.17
CC[C@H]1OC(=O)[C@H](C)C(=O)[C@H](C)[C@@H](O[C@@H]2O[C@H](C)C[C@H](N(C)C)[C@H]2O)[C@](C)(OC)C[C@@H](C)C(=O)[C@H](C)[C@H]2N(CCCCn3cnc(-c4cccnc4)c3)C(=O)O[C@]12C | 0.27

A few entries again (sample 1):
Structure (SMILES) | remaining compound
CC(=O)Nc1cc(F)c(F)cc1NC(=O)CCNC(=O)C(C)(C)C | 83.4%
COc1cc(-c2nnc3ccc4ccccc4n23)cc(OC)c1OC | 52.2%
CN1CCCC2(CCN(C3CCN(c4ccc(F)c(F)c4)CC3)C2)C1=O (stereo not shown) | 71.8%
Nc1noc2cc(OCCCCCOc3ccc4c(N)noc4c3)ccc12 | 95.5%
Cc1ccccc1-c1nc2ccccc2cc1Cn1nc(-c2ccncc2)c2cnc(N)nc21 | 28.2%
